Measured values from different studies.
Protocols differ between the studies behind these lines. Numbers after ± are the reported error. Converted amounts (≈) assume the structure as drawn.

With `Cc1cc(C)c(N2CCN(c3c(C)cc(C)cc3C)C2=[Se])c(C)c1.[Cl][Au]` the resistance factor was 1.6 (LoVo-OXP colon cancer cells; MTT; reference: LoVo-OXP over LoVo IC50).
With `N=C(N)NCCC[C@@H]1NC(=O)[C@H](CCCCNC(=O)CNC(=O)CNC(=O)CNC(=O)CC[C@H](NC(=O)CCOCCOCCOCCOCCNC(=O)CC[C@H](NC(=O)CN2CCN(CC(=O)O)CCN(CC(=O)O)CCN(CC(=O)O)CC2)C(=O)NCCOCCOCCOCCOCCC(=O)N[C@@H](CCC(=O)NCC(=O)NCC(=O)NCC(=O)NCCCC[C@@H]2NC(=O)[C@@H](Cc3ccccc3)NC(=O)[C@H](CC(=O)O)NC(=O)CNC(=O)[C@H](CCCNC(=N)N)NC2=O)C(=O)NCC(=O)NCC(=O)NCC(=O)NCCCC[C@@H]2NC(=O)[C@@H](Cc3ccccc3)NC(=O)[C@H](CC(=O)O)NC(=O)CNC(=O)[C@H](CCCNC(=N)N)NC2=O)C(=O)NCC(=O)NCC(=O)NCC(=O)NCCCC[C@@H]2NC(=O)[C@@H](Cc3ccccc3)NC(=O)[C@H](CC(=O)O)NC(=O)CNC(=O)[C@H](CCCNC(=N)N)NC2=O)NC(=O)[C@@H](Cc2ccccc2)NC(=O)[C@H](CC(=O)O)NC(=O)CNC1=O` [indium-111 labelled] the tissue uptake was 1.33 ± 0.23 %ID/g (female athymic nude mice, eyes; intravenous, 3 µCi, 0.5 h, U-87 MG glioma xenograft).
`CC1(C(=O)O)CCCC2(C)C1CCC1(C)c3cocc3CCC12` (centres unmarked): mRNA level “decreased” (LNCaP; qRT-PCR, refers to: AR; 10 µM, absence of androgen).
Under “Bax protein level”, `CCCCCCCCCCCCCC(=O)NCC(=O)N[C@@H](CCCNC(=N)N)C(=O)N[C@@H](Cc1c[nH]c2ccccc12)C(=O)N[C@@H](CCCCN)C(=O)N[C@H](C(=O)N[C@@H](Cc1ccccc1)C(=O)N[C@@H](CCCCN)C(=O)N[C@@H](CCCCN)C(=O)N[C@H](C(=O)N[C@@H](CCC(=O)O)C(=O)N[C@@H](CCCCN)C(=O)N[C@H](C(=O)NCC(=O)N[C@@H](CCC(N)=O)C(=O)N[C@@H](CC(N)=O)C(=O)N[C@H](C(=O)N[C@@H](CCCNC(=N)N)C(=O)N[C@@H](CC(=O)O)C(=O)NCC(=O)N[C@H](C(=O)N[C@H](C(=O)N[C@@H](CCCCN)C(=O)N[C@@H](C)C(=O)NCC(=O)N1CCC[C@H]1C(=O)N[C@@H](C)C(=O)N[C@H](C(=O)N[C@@H](C)C(=O)N[C@H](C(=O)N[C@H](C(=O)NCC(=O)N[C@@H](CCC(N)=O)C(=O)N[C@@H](C)C(=O)N[C@@H](C)C(=O)N[C@H](C(=O)N[C@H](C(N)=O)[C@@H](C)CC)[C@@H](C)O)C(C)C)C(C)C)C(C)C)C(C)C)[C@@H](C)CC)[C@@H](C)CC)C(C)C)[C@@H](C)CC)[C@@H](C)CC` is recorded as “increased” (Jurkat; western blot; concentration not given, 16 h).
`CC(C)[C@@H](CS(=O)(=O)C(C)C)N1C(=O)[C@@](C)(CC(=O)NCCCNC(=O)c2ccc([18F])nc2)C[C@H](c2cccc(Cl)c2)[C@H]1c1ccc(Cl)cc1` has an uptake of < 2% (SJSA-1).
`CC1(C)CC([n+]2cc([NH-])on2)CC(C)(C)N1O` — result for “highest proliferative concentration”: ≤ 16 µM (human trabecular meshwork cells; cell proliferation; with: TBHP 300 µM).
The phototherapeutic index of `F[P-](F)(F)(F)(F)F.F[P-](F)(F)(F)(F)F.[Ru+2].c1ccc(-c2ccccn2)nc1.c1ccc(-c2ccccn2)nc1.c1csc(-c2cc3cccnc3c3ncccc23)c1` is reported as > 216 (SK-MEL-28; cell viability; visible light; reference: dark EC50 over light EC50).
With `CC(=O)NC(Cc1ccc(Br)c(Cl)c1)C(=O)N[C@@H](C)C(=O)N1CCC[C@H]1C(=O)N1CCC[C@H]1C(=O)N[C@@H](CCC(=O)O)C(=O)N[C@@H](Cc1c[nH]cn1)C(=O)N[C@@H](CO)C(=O)N[C@H](C(=O)N[C@@H](C)C(N)=O)[C@@H](C)OP(=O)(O)O` (some centres unmarked) the inhibition was 0.15 ± 0.01% (PAK2 (Homo sapiens, UniProt Q13177); 10 µM).
`Cc1cccc(C)c1OCC(=O)N[C@@H](Cc1ccccc1)[C@H](C[C@H](Cc1ccccc1)NC(=O)[C@H](C(C)C)N1CCCNC1=O)OC(=O)[C@H](CC(C)C)NC(=O)[C@@H](N)Cc1cnc[nH]1` gave a remaining uptake of ~30% (cell line; transport, inhibitor; 25 µM, with: [3H]-L-histidine; reference: untreated).
`CCCCCCCCOCc1cn(CC2=CC[C@@H]3C(C(=O)OC)=CO[C@@H](OC(C)=O)[C@H]23)nn1` has a viability of 68.1 ± 0.1% (SK-N-SH; neuroprotection, MTT; 0.3 µM, 24 h, with: 250 µM H2O2).
`c1ccc2ncc(Nc3c4c(nc5ccccc35)CCCC4)cc2c1` has a viability of 52 ± 2.26% (SH-SY5Y; MTT; 50 µM, 1 h pretreatment, 10% FBS, with: H2O2).
`CCC(C)C(=O)OC1C2C3(C)CCC(OC4CC(OC)C(OC5OC(C)C(OC6OC(CO)C(O)C(O)C6O)C(OC)C5O)C(C)O4)CC3CCC23OC32CCC(C(C)=O)C2(C)C1OC(C)=O` (centres unmarked): “fold reversal of IC50” 1 (MDA435/LCC6-MDR1; cell growth, MDR reversal, SRB; 10 µM, with: doxorubicin; reference: doxorubicin alone over combination).
`[N]#[Os]([Cl])([Cl])[Cl].c1ccc(-c2ccnc3c2ccc2c(-c4ccccc4)ccnc23)cc1`: “ER area increase” 25.1% (A2780; ER-Tracker microscopy; 10 µM, 4 h; reference: untreated).
With `CCCCCCCCC(=O)NCc1ccc(O)c(OC)c1` the IC50 was 0.0201 µg/mL (≈ 0.0686 µM) (mAb 4-AT4; antibody binding, indirect competitive ELISA; with: coating antigen hapten 1-OVA).
With `COC(=O)C1=CO[C@@H](OC(C)=O)[C@@H]2C(Cn3cc(CCCN4C(=O)c5ccccc5C4=O)nn3)=CC[C@H]12` the viability was 66.1 ± 0.8% (SK-N-SH; neuroprotection, MTT; 0.6 µM, 24 h, with: 250 µM H2O2).
For `N=C(N)NCCC[C@@H]1NC(=O)[C@H](CCCCNC(=O)CCOCCOCCOCCOCCNC(=O)CC[C@H](NC(=O)CCOCCOCCOCCOCCNC(=O)CC[C@H](NC(=O)CN2CCN(CC(=O)O)CCN(CC(=O)O)CCN(CC(=O)O)CC2)C(=O)NCCOCCOCCOCCOCCC(=O)N[C@@H](CCC(=O)NCCOCCOCCOCCOCCC(=O)NCCCC[C@@H]2NC(=O)[C@@H](Cc3ccccc3)NC(=O)[C@H](CC(=O)O)NC(=O)CNC(=O)[C@H](CCCNC(=N)N)NC2=O)C(=O)NCCOCCOCCOCCOCCC(=O)NCCCC[C@@H]2NC(=O)[C@@H](Cc3ccccc3)NC(=O)[C@H](CC(=O)O)NC(=O)CNC(=O)[C@H](CCCNC(=N)N)NC2=O)C(=O)NCCOCCOCCOCCOCCC(=O)NCCCC[C@@H]2NC(=O)[C@@H](Cc3ccccc3)NC(=O)[C@H](CC(=O)O)NC(=O)CNC(=O)[C@H](CCCNC(=N)N)NC2=O)NC(=O)[C@@H](Cc2ccccc2)NC(=O)[C@H](CC(=O)O)NC(=O)CNC1=O` [indium-111 labelled], “tumour to tissue ratio” read 2.79 ± 0.73 (athymic nude mice, female, U-87 MG glioma xenograft, tumour and liver; intravenous, 1 h; reference: tumour over liver).
The viability of `COC(=O)C1=CO[C@@H](OC(C)=O)[C@@H]2C(Cn3cc(CCCO)nn3)=CC[C@H]12` is reported as 60.8 ± 0.8% (SK-N-SH; neuroprotection, MTT; 0.6 µM, 24 h, with: 250 µM H2O2).
The protein level of `CC(C)CC(O)(CC(C)C)c1cn(C(=O)N2CCCC2)nn1` is reported as 1.05 ± 0.11 (mouse T-cells; SILAC proteomics, refers to: SERF2; 1 nM, 6 h, unit not given; reference: DMSO).
`COC(=O)C1=CO[C@@H](OC(C)=O)[C@@H]2C(Cn3cc(-c4ccc(F)cc4)nn3)=CC[C@H]12` has a viability of 70.9 ± 1.5% (SK-N-SH; neuroprotection, MTT; 0.075 µM, 24 h, with: 250 µM H2O2).
`CCN(Cc1ccccc1)C(=O)CCc1nc(CN2CCN(C(=O)Cc3ccc(OC)c(OC)c3)CC2)no1` — result for “V1/2 of activation”: -50.1 ± 1.52 mV (KCNQ5 (Homo sapiens, UniProt Q9NR82); whole-cell patch clamp; transfected cells; 300 nM).

Excerpt of the above:
`CC(C)[C@@H](CS(=O)(=O)C(C)C)N1C(=O)[C@@](C)(CC(=O)NCCCNC(=O)c2ccc([18F])nc2)C[C@H](c2cccc(Cl)c2)[C@H]1c1ccc(Cl)cc1` has an uptake of < 2% (SJSA-1).
For `N=C(N)NCCC[C@@H]1NC(=O)[C@H](CCCCNC(=O)CCOCCOCCOCCOCCNC(=O)CC[C@H](NC(=O)CCOCCOCCOCCOCCNC(=O)CC[C@H](NC(=O)CN2CCN(CC(=O)O)CCN(CC(=O)O)CCN(CC(=O)O)CC2)C(=O)NCCOCCOCCOCCOCCC(=O)N[C@@H](CCC(=O)NCCOCCOCCOCCOCCC(=O)NCCCC[C@@H]2NC(=O)[C@@H](Cc3ccccc3)NC(=O)[C@H](CC(=O)O)NC(=O)CNC(=O)[C@H](CCCNC(=N)N)NC2=O)C(=O)NCCOCCOCCOCCOCCC(=O)NCCCC[C@@H]2NC(=O)[C@@H](Cc3ccccc3)NC(=O)[C@H](CC(=O)O)NC(=O)CNC(=O)[C@H](CCCNC(=N)N)NC2=O)C(=O)NCCOCCOCCOCCOCCC(=O)NCCCC[C@@H]2NC(=O)[C@@H](Cc3ccccc3)NC(=O)[C@H](CC(=O)O)NC(=O)CNC(=O)[C@H](CCCNC(=N)N)NC2=O)NC(=O)[C@@H](Cc2ccccc2)NC(=O)[C@H](CC(=O)O)NC(=O)CNC1=O` [indium-111 labelled], “tumour to tissue ratio” read 2.79 ± 0.73 (athymic nude mice, female, U-87 MG glioma xenograft, tumour and liver; intravenous, 1 h; reference: tumour over liver).
The protein level of `CC(C)CC(O)(CC(C)C)c1cn(C(=O)N2CCCC2)nn1` is reported as 1.05 ± 0.11 (mouse T-cells; SILAC proteomics, refers to: SERF2; 1 nM, 6 h, unit not given; reference: DMSO).
